Published values pooled from the literature.
Parts stem from different laboratories: compare values within a part only. Changes are numbered by the printed parent chain.

Sample 1 — technique: RNA Bind-n-Seq; molecule type: RNA; sample: in vitro; tested at: 365 nM; reference: no-protein control; reading: higher = stronger binding
Target: RNA binding protein fox-1 homolog 2, RRM domain, GST-SBP tag (RBFOX2, Homo sapiens, UniProt O43251-10, residues 100-194)
Notes: natural RNA segment, single round, ends assumed
Constant ends, left off below: GGGAGUUCUACAGUCCGACGAUC … UGGAAUUCUCGGGUGCCAA
Construct (chain): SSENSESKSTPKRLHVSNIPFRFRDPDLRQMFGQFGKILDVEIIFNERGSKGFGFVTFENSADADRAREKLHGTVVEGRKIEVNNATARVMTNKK
`GCCCUAAACACCUUGUAGUUGCUGAAGACAACUCAAGAGCAUCUAAGGGGAGUAUCUCUCACGACCCUAAAUUCUGCCUCCAGCUGUGCCCAGUGAAAGACCUCAAGUCU` — result for “RBNS enrichment (R)”: 0.293.
`AGGCUUCAAGCUGCUAAACACCUUCGAGGGCAGUGGCCUCAUCAGUCUGCCAGGGAGACAAGUACACACCUUGACUCUCAAGUUGGCAGCCCAGCCUGAAGUAGAGCUCU` — result for “RBNS enrichment (R)”: 0.352.
Under “RBNS enrichment (R)”, `CCCAGUUACCACUAGGACAUUCUCUAGUAGAUCCAUUUUGCUGUCACUUUAUUCUAUGGCUAGAAAGUCAGUGGAAAGUAAAUGUGCCAAACUCACUUGUCAGAACACAC` is recorded as 0.316.
Under “RBNS enrichment (R)”, `AUGAAGUUGUGUUGCCUCAGGCUGUUUAGGGACCAUUGCCUGUCUUGGUCACAUGAGUCUGUCUCCUUACUUUAGUCCCUGGGCAAUCCUUGCUUAAUGCUUUUGUUGAC` is recorded as 0.601.
`CAACGAGUUAAUAAUUCUCAUUCAUCGUUUACACAAUGUAACAUGUGUCAUACUGGGGCCAGCGAGAUGGCUCAGUAGGUAAAGGUGCUUGAUGCUAAGCCCGGCAGCCU`: “RBNS enrichment (R)” 0.616.
Under “RBNS enrichment (R)”, `GAAUUGUGGAGGGAAAUGAAAUAUCCAUGUACCAGGCCAGGCAGAUGGUCAGUUAGGAUGACAAUAGUAAGUUCAUCUACAGCAUAAAAUGUGAAAUGCUUUCAUCCUCA` is recorded as 1.43.
`AUUUUCUGGACUUUAAAUCUCCUGGUUAAAUAAUGCUAAUCACUGUACCAUUUGAGUUACAUGUUUUAACCUCUUUUUUUUUUCUAAUUAUUCCAUCCAAAAUUUCUGGU`: “RBNS enrichment (R)” 0.576.
For `AGGUCAGGAGAUCGAGACCAUCCUGGCUAACAUGGUGAAACCCCGUCUCUGCUAAAAAUACAAAAAAUUAGCCAGAUGUGGUGGUGCACACCUGUAGUCCCAACUAUUCG`, “RBNS enrichment (R)” read 0.298.
`GUCUCCCCCACACACACCUGUCACCUCUCUACAGAGACCCUGAGGGUGCGGUGAGAUGGAGGCCAUGAUGCCUUGUGUGACUGUGAGUGUGUGUGUGUAUGCAUGAGAGA`: “RBNS enrichment (R)” 4.37.
`CCCAGCUAGUCUAUCUGAGCUCUCGCCUCCAUCCUUGUUUUAAUCAUGCUUCUACAAGGUGAAGUGUGUUUGGGGAAACUGAGCUCUAACAAAAGCCGCGACAGCCACCA`: “RBNS enrichment (R)” 0.481.
Under “RBNS enrichment (R)”, `UCUCCAGUGAAUCUCAUUCCAGGUCCUGCUCUAAGGCUCUGGGGACUAGGCUGGGCCUGGCCCCAGAAGCCGGGCAGUUCCUGCCUCCUUCUCCACUUUUAUAAAGCCAA` is recorded as 0.552.
`GGGAGACAGGAGCCUAGCGGAGCCCAGCCUGGGAGCCCAGAGGGUGGCAAGAACAGUGGGCGUUGGGAGCCUAGCUCCUGCCACAUGGAGCCCCCUCUGCCGGUCGGGCA` — result for “RBNS enrichment (R)”: 0.386.

Sample 2 — target: CCNB1, cyclin fold, Cln2 fusion (human); technique: yeast growth competition, sequencing; sample: yeast; notes: weak parent motif; reference: not given; reading: higher = stronger binding
Starting sequence: CDT1 docking peptide (human); PPARRRLRLSVDE
`PPARARLRLSVDE [R5A]`: “normalised enrichment score” -0.408.
`PPARRRARLSVDE [L7A]` — result for “normalised enrichment score”: 1.43.
Under “normalised enrichment score”, `PPARRRLRASVDE [L9A]` is recorded as 0.762.
Under “normalised enrichment score”, `APARRRLRLSVDE [P1A]` is recorded as 0.532.
`PPARRALRLSVDE [R6A]` — result for “normalised enrichment score”: 0.629.
`PPARRRLALSVDE [R8A]`: “normalised enrichment score” 1.02.
`PPARRRLRFSVDE [L9F]` — result for “normalised enrichment score”: 1.2.

Sample 3 — technique: RNA Bind-n-Seq; molecule type: RNA; sample: in vitro; tested at: 200 nM; notes: whole 134-nt RNA, ends assumed; together with: 150 mM KCl; reference: input library; reading: higher = stronger binding
Target: Fragile X messenger ribonucleoprotein 1, C-terminal low-complexity region (Fmr1, Mus musculus, UniProt P35922)
Constant ends, left off below: GGGAGUUCUACAGUCCGACGAUC … UGGAAUUCUCGGGUGUCAAGG
The log2 enrichment of `CCUGUGCUACACAUCGUAUGUACCGAAUCGGGAAAAAAGGAAAAAAGGGGAAAAAAGGGGAAAGUAUUAUGUUACGCCGUUCGGAUCUGC` is reported as -0.507.
`AAGUCCUGUGCUACACAUCGUAUGUACCGAAUCGGGUUUUUGGGUUUGGGAAAGGGAAAGUAUUAUGUUACGCCGUUCGGAUCUGCACUU` has a log2 enrichment of 0.455.
`AGUCCUGUGCUACACAUCGUAUGUACCGAAUCGGGAAAAAGGGUUUUUUUGGGUGGGAAAGUAUUAUGUUACGCCGUUCGGAUCUGCACU` gave a log2 enrichment of 0.666.
The log2 enrichment of `ACCAUGCAGGUGGGCAUCUUUGGGAAGUGGGGCAAGGGGGGGAUAAAGAGGGGGGUAACACUUUGGGAACAGGUGGUCCCAGGUCGUUUC` is reported as 0.457.
`UGCCUGCUCCGGGCCCCGUGCUGGCGCCUACGCACCUGCAGACAGAGCUGGUGCUGAGGUGCCAGAAGGAGACCGACUGUGACCUCUGUC` gave a log2 enrichment of -1.27.
For `UCCUGUGCUACACAUCGUAUGUACCGAAUCAAAUUUUUAAAUUUUUAAACCCCCCCAAAAAAGUAUUAUGUUACGCCGUUCGGAUCUGCA`, the log2 enrichment was 0.333.
`UAACUUUAGAGGAGGAUCUGAUGGAUAUGGCAGUGGACGUGGAUUUGGGGAUGGCUAUAAUGGGUAUGUAGGAGGACCUGGAGGUGGCAA` has a log2 enrichment of 0.209.
`AGUCCUGUGCUACACAUCGUAUGUACCGAAUCGGGUUUGGGUUUUUUUGGGAAAGGGAAAGUAUUAUGUUACGCCGUUCGGAUCUGCACU` has a log2 enrichment of 0.534.
`ACCAUGCAGGUGGGCAUCUUUGGAAAGUGGGGCAAGGGGGGGAUAGGGAGGGGGGUAACACUUUGGGAACAGGUGGUCCCAGGUCGUUUC` has a log2 enrichment of 0.753.
The log2 enrichment of `UACUCUCUCGGGGCUGGAAGCUUCCUGACUGAAGAUCUCUCUGCACUUGGGGUUCUUUCUAGAACAUUUUCUAGUCCCCCAACACCCUUU` is reported as 1.09.
`UGCCAUGGACAAUAUUACCAGGCAGAACCAAUUCUACGAUACCCAAGUCAUCAAACAAGAAAACGAGUCAGGCUACGAGAGGAGACCACU` has a log2 enrichment of 0.0138.
`GUGCUACACAUCGUAUGUACCGAAUCGGGGAAAAAAAGGGGAAAAAAAGGGGAAAAAAAGGGGAAAGUAUUAUGUUACGCCGUUCGGAUC` has a log2 enrichment of -0.0254.
With `CCUGUGCUACACAUCGUAUGUACCGAAUCGGGUUUUUGGGAAAAAAAGGGAAAAAAAGGGAAAGUAUUAUGUUACGCCGUUCGGAUCUGC` the log2 enrichment was -0.891.
`CACAGACAACACGCACCCACACAGACACAGAGGGAAAAGGUUGGGAUGGGGACAGGGUGCACAGCAGGGCGGGGUAGGACCCCAGCCCCU` gave a log2 enrichment of 1.48.

Mixed results
For `PhoQ, residues 284 288 289 292 302 303 ASASEQ`, the fold induction was 19.1 (PhoP, residues 12 14 15 18 19 LWHSL (Escherichia coli, UniProt P23836); Sort-seq, refers to: YFP reporter; E. coli; PhoQ-PhoP variant library, together with: 10 µM Mg2+; reference: high Mg2+ state, higher = stronger signaling).

Excerpt of the above (sample 3):
The log2 enrichment of `CCUGUGCUACACAUCGUAUGUACCGAAUCGGGAAAAAAGGAAAAAAGGGGAAAAAAGGGGAAAGUAUUAUGUUACGCCGUUCGGAUCUGC` is reported as -0.507.
`UAACUUUAGAGGAGGAUCUGAUGGAUAUGGCAGUGGACGUGGAUUUGGGGAUGGCUAUAAUGGGUAUGUAGGAGGACCUGGAGGUGGCAA` has a log2 enrichment of 0.209.
